Experimental data gathered from unrelated publications.
Numbered parts are unrelated; each lists some results of a single study.

Series 1
Target: Histone acetyltransferase KAT6A, winged helix 2, GST fusion (KAT6A, Homo sapiens, UniProt Q92794, residues 85-181)
Method: protein binding microarray
Form: double-stranded DNA, one strand shown
Sample: in vitro
Concentration: not given
Notes: 8-mer, flanks averaged, mean of 2 arrays, mostly near background
Reference: not given
Reading: higher = stronger binding
Target sequence (chain): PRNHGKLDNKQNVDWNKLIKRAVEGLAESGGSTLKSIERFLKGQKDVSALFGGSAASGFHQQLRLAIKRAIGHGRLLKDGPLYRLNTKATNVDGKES
Oligonucleotide | E-score
ACTAATCG | 0.141
CTCGCTAA | 0.00925
ACTGTGCC | 0.016
GATTGTAA | 0.00439
GGCAGCTA | 0.181
ATTATGCA | -0.0877
TTGTAAAA | 0.00089
ACCTTTAT | -0.242
ACAGAGTC | -0.0761
CTAGTTTC | 0.0159
ATACGCGA | -0.0236
CCGCAACA | 0.106
CGTGCAAC | 0.0523
ACCGCAAC | 0.259
AGTCATCA | -0.103
CGTCGACG | 0.0377
ATCATAGA | 0.153
ATCTTAGA | 0.0499
ACCCAAGG | -0.0407
TGACCACA | -0.0522
GGTACACC | -0.0779
CGCTGTGA | -0.0997
CATGACAA | -0.038
GAAGTTAA | -0.175
CTCTCCCA | -0.0658

Series 2
Target: RNA binding protein fox-1 homolog 2, RRM domain, GST-SBP tag (RBFOX2, Homo sapiens, UniProt O43251-10, residues 100-194)
Method: RNA Bind-n-Seq
Form: RNA
Sample: in vitro
Concentration: 365 nM
Notes: natural RNA segment, single round, ends assumed
Reference: no-protein control
Reading: higher = stronger binding
Shared flanks, not repeated: GGGAGUUCUACAGUCCGACGAUC … UGGAAUUCUCGGGUGCCAA
Target sequence (chain): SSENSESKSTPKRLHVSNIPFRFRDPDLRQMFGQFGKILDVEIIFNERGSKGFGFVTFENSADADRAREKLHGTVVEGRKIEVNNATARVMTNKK
Oligonucleotide | RBNS enrichment (R)
AAAAAGCCAGUGCCUUCUGGCUGGUGCCGAGGCUUGGGUGAAAUGUUAAAUAUGCACUGACCUCAGAAAGUCGAGUUCAAAAGGGAGAUAAAAUUGCCAAAGUGAUCCAA | 0.491
AUGCUACAAACAUGUCUACCCAGGGUACCACUGAGCUACGUCUUCCUCAUGGGGCAGACGUGAUUGGCUCACAGUUGAAGUCAAAUCACUGCUUGGGCUGCUUGUAGCGG | 0.229
GCCCAGUUGACCCGAAAAAUAGGACUUUUUAGAAUUGCAUUGCCACUUCUAAAAUCCUAGCAAUACUUAGAAUAACACAUCAGUGAGAUAAAUUUUACUCAAUUAUUUUA | 0.268
UAUAACACACUGGAGAGCACUCUGUGAUGGGGCUGCACACGUGCAGCCGUGCAGCACUCGGGAUGUCUGGUUCAGCAGACCCAGGCUUUAUUGGCCAAAGCAUUCUUACA | 0.349
CCACCUCAACCUGGCAUUCUGUGUUAAUAAUACAGAUACUAUUUUUAUAAAAUCAUUUUCAAGUUUCUUCAGAUGGGAAGGUGAUUCUGUGACCUUUCUUAUUUCCCUGU | 0.524
AUGGUUCCUCUCCUAAAAGCCAUGGGCAGCAGUUUCCGAGGGCCUGCAUGAUCCACCUGCUGCACGAUCCUAUGAGGGCUUCCUGUGGCACACAGCCCUCUGGGUGCUUG | 19.7
CAGCAGACUUUCUCUGUGUAUGAGUGUGAAUGAUCAAGUCCUUUGUGAAUAUUUUCAACUAUGUAGGUAAAUUCUUAAUGUUCACAUAGUGAAAUAAAUUCUGAUUCUUC | 0.828
CACUGCAACCUCUGCCUCCUGGGUUCAAGUGAUUCUCCAGCCUCAGCCUCCCGAGUAGCUGGGAUUAUGGGCGCCCACCACCAUGCCCAGCUAAUUUUUGUAUUUUUUUU | 1.01
ACCGCCUCUGCCCCGUGAUGUGCUGGAAGGCUCCUGUCCUCUCCCCACCGCGUCUUGCCUUUGUGCUGACCCCGCGGGGCUGCGGCCGGCAGCCACUCUGCGUCUCUCAC | 0.46
CUUUAUUGAUCUUUUGCAUGUCCCCCAAAGCCAGAAUCUGCUCAUGGAGGAAGGAAGGCUAAGAACUGUCCUUGAGGAACUUCAUCAGUAACUCUGGUAAAGCAUCCUGU | 6.71
UAUCAAGUUCACAACCAGUUUUAUAUUCGAAACGCUUGGAGUCAGCCAGCCAGCCACAUGCAGCUUUGCUGAUAAAUGGAUACCUUUUCACACCAUUUAUGAAAACAAAA | 0.503
GCCACUUCUGAUUUGCCAUGGUUGACAGCAUAGUGGAAGAUAGAUAUGACAGCGCUUUGUAAAGCAGGCCAGUGGCAAGCUGGCCCACAGUAGAGAAACACUGUAGUUCA | 0.476

Series 3
Target: RING finger protein unkempt homolog, zinc fingers 1-6, GST-SBP tag (UNK, Homo sapiens, UniProt Q9C0B0, residues 30-357)
Method: RNA Bind-n-Seq
Form: RNA
Sample: in vitro
Concentration: not given
Notes: RNA with constant flanks, ends assumed
Reference: input RNA pool
Reading: higher = stronger binding
Shared flanks, not repeated: GGGAGUUCUACAGUCCGACGAUC … CAACAGAGGAUUGAGCAUCA
Residues (chain): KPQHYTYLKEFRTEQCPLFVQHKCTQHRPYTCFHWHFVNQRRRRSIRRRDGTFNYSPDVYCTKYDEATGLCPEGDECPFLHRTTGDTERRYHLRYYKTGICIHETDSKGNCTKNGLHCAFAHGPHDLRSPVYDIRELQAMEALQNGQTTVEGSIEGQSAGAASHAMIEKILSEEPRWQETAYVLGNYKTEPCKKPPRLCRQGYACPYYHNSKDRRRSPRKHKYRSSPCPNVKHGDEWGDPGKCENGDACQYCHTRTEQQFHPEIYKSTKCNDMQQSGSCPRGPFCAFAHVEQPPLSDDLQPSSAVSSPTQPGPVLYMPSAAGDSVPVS
Oligonucleotide | bound/input enrichment
GUGGACAUGGCAGCACAGGUGGCUGCAGGAAUGGCUUACAUCGAGCGCAUGAAUUAUAUCCACCGAGAUCUGCGAUCAGCAAACAUUCUAGUGGGGAAUGGACUCAUAUGCAAGAUUGCU | 0.283 ratio
UUAGCAGGUGGAGCCAUCUUCUGUGUUUCUACAUGGACAUAUACAGCCACACAAAUUGGAACCGAAUGGAACAUGUCCCCUGUUGGCAGAGUCACCCCAAAGGAAUGGAGAGAUCAGUAG | 0.394 ratio
UGCUGGCUCUGUUUUUCUGUAAAUAAAUUUGCAUAUUUUGUAGGACUUUUAAUUGUAAUGACCGAGAAAAAACAAGGAAAACUAUUUAAUGAAAGCACGAUAUUUAUCUUUGGUAAAUGA | 0.32 ratio
UACAGGCAAAGUUGAAUCUUCUGUCUUCCUGGCAAAAAAUGGCAUAAAAACUGAGUUGCCCGCUCAAAUUCCUGGGUUUCAUGGAAUUAUGAUUGAGGCACUACCCUGGUAGUGGCCGUU | 0.205 ratio
UCUGAAUCGGAGCAGGCUCUUAAAGGUACCUCUCAGAUUAAGUUACUCUCAUCUGAAGAUACCGAAGGGAUGCGACUCGUGUGUAGGCUUGCCAGAGAAGUUUUGGACAUUGCUGCUGGG | 0.181 ratio
CCUCUACUUCAGUACUUUGGUAUCCUUUUGGACCAGGGACAGCUCAACAAAUACGAAUCCUCCGAGCUUUGUAGGCCUGUACUUCAGCAAGGGCGAAAACAGCUUUUGGAGAAAUGGUUA | 0.0718 ratio
UCUGCAUGAUGUAGAAAUAAAUAAAAUUAUAUCCACAACUGCAUCAAAGACAGAAACACCAACCGUGUCUAAGUCUCUGAGUUCUUCUUUGGAUGACACCGAAGUUAAGAAGGUUAUGGA | 0.427 ratio
UUGCUGUCCUCUUGCUGAUGGCUGCUAGAUUUAAUUUAUUUGCUUCCCUCCUUGAUAACAUCCGUGAUUCUGAUUUCAGUUUUUCAUUUGUUUUGCUUUUGUUUUUUUCCUCGUGUAACA | 2.03 ratio
CAACAGAGUCUAGGAUGGGUUCAUUACAUGAUUCAUGAGCCAGAACCGCAUAUUCUUCUCUUCCGACGACCUCUUCCAAAAGAACAACAAAAAUGAAGUGCAGCUGGGAUCAUCUAAUCU | 0.257 ratio
GUUGUGCAGUAGAGUUCAGACUUCUCAUCCAAUCUUAUAUUGUAGGCAUUUCUCAAGUGUUUCCGAUAUUAAUAACUAACAUUGGGAUUUUACUUUGCCAGCCCCAGCCUUCAGAACUCC | 0.463 ratio
GCAACAAGUGAAGAAGAAGCUAAAUUUGGUGCCAGACGUUUAGCCCGUAGUCUGCAGAAACCCGGUUUUCAGGUCAUCUUCACAGAUUUUAAGGUGGUGAAUGUUUUGGCAGUGUGUAAC | 0.267 ratio

Series 4
Target: Fragile X messenger ribonucleoprotein 1, C-terminal low-complexity region (Fmr1, Mus musculus, UniProt P35922)
Method: RNA Bind-n-Seq
Form: RNA
Sample: in vitro
Concentration: 200 nM
Notes: whole 134-nt RNA, ends assumed
With: 150 mM KCl
Reference: input library
Reading: higher = stronger binding
Shared flanks, not repeated: GGGAGUUCUACAGUCCGACGAUC … UGGAAUUCUCGGGUGUCAAGG
Oligonucleotide | log2 enrichment
UCAAGUCCUGUGCUACACAUCGUAUGUACCGAAUCGGGUGGGUUUGGGAAAGGGAAAGUAUUAUGUUACGCCGUUCGGAUCUGCACUUCC | 1.25
CCUGUGCUACACAUCGUAUGUACCGAAUCGGGUUUUUUGGGGUUUUUUGGGUUUUUUGGGAAAGUAUUAUGUUACGCCGUUCGGAUCUGC | -0.139
GUCCUGUGCUACACAUCGUAUGUACCGAAUCGGUUUUUGGUUUUUUUGGAAAAAAAGGAAAGUAUUAUGUUACGCCGUUCGGAUCUGCAC | -0.853
UCCUGUGCUACACAUCGUAUGUACCGAAUCGGCCCCCGGGGCCCCCGGGGCCCCCGGGGAAAGUAUUAUGUUACGCCGUUCGGAUCUGCA | -1.05
CACAGACAACAUGCACCCACACAGACACAGAGGGAAGGGGUUGGGAUGGGGACAGGGUGCACAGCAGGGCGGGGUAGGACCCCAGCCCCU | 1.3
GUGCUACACAUCGUAUGUACCGAAUCGGGGAAAAAAAGGGGUUUUUUUGGGGAAAAAAAGGGGAAAGUAUUAUGUUACGCCGUUCGGAUC | 0.299
UGGGAGGUGGAUUUUGUUUAUUUUUUUAGCUCAUUUCCAGGGGUGGGAAUUUUUUUUUAAUGUGUGUCAUGAAUAAAGUUGUUUUUGAAA | 0.363
AAGUCCUGUGCUACACAUCGUAUGUACCGAAUCGUGUGUGUGUGUGUGUGUGUGUGUAAAGUAUUAUGUUACGCCGUUCGGAUCUGCACU | 0.459
CCUCAAGUCCUGUGCUACACAUCGUAUGUACCGAAUCGGAAAGGAGGAAAGGAAAGUAUUAUGUUACGCCGUUCGGAUCUGCACUUCCAG | 0.176
UUUUACUUCUCCGCCAGGUGCUGUGCUCCAUCAUCGCCGGUACCUUGCACUAUCUCUACCUGGCCACCUUGACCUGGAUGCUGCUGGAGG | -0.183
GUCCUGUGCUACACAUCGUAUGUACCGAAUCGGAAAAAAGGAAAAAAGGGGAAAAAAGGAAAGUAUUAUGUUACGCCGUUCGGAUCUGCA | -0.465
UGGGAGGUGGAUUUUGUUUAUUUUUUUAGCUCAUUGCCAGGGGUGGGAAUUUUUUUUUAAUAUGUGUCAUGAAUAAAGUUGUUUUUGAAA | 0.15
AAGUCCUGUGCUACACAUCGUAUGUACCGAAUCAAACCCAAAUUUUUAAACCCAAAAAAGUAUUAUGUUACGCCGUUCGGAUCUGCACUU | -0.302
AAGUCCUGUGCUACACAUCGUAUGUACCGAAUCGGGGCCCGGCCCGGGGCCCGGGGAAAGUAUUAUGUUACGCCGUUCGGAUCUGCACUU | -1.09

Series 5
Target: Sal-like protein 4, full length isoform A (SALL4, Homo sapiens, UniProt Q9UJQ4, residues 1-1053)
Chain of UniProt Q9UJQ4 (whole entry, looked up): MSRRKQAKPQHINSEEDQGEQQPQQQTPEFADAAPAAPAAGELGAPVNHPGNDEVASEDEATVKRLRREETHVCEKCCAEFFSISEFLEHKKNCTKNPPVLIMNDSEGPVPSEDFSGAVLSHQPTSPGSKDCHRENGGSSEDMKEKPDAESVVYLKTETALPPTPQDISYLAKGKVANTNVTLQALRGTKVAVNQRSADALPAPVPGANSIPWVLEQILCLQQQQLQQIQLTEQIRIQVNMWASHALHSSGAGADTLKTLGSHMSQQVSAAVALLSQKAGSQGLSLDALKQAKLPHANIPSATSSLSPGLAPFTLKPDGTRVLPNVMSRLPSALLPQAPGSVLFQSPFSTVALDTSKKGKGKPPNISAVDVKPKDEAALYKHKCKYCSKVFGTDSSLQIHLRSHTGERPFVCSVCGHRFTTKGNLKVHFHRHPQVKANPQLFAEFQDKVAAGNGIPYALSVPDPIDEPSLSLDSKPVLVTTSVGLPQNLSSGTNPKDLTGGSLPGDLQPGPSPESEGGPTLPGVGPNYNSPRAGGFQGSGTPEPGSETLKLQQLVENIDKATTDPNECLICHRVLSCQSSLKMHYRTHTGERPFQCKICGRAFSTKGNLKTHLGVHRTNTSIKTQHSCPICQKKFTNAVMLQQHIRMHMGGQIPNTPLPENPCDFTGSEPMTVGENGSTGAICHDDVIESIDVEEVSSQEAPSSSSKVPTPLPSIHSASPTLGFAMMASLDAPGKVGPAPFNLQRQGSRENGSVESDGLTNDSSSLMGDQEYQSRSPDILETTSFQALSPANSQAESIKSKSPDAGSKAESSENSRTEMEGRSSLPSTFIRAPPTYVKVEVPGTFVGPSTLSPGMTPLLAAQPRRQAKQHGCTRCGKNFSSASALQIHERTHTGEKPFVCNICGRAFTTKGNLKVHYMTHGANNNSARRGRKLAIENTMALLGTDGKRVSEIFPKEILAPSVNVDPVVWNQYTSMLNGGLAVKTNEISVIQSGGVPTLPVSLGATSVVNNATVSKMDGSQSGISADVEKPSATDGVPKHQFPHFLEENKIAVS
Method: universal PBM
Form: double-stranded DNA, one strand shown
Sample: in vitro
Concentration: 600 nM
Notes: 8-mer, flanks averaged, mean of replicates
Reading: higher = stronger binding
Oligonucleotide | E-score
CATCTTTA | 0.167
CACTTGCG | -0.124
ACCGTGAG | -0.246
ACTGAGCT | -0.193
CAGGCTCA | -0.183
ACGCGAAT | 0.0724
TAATCCTA | 0.143
GATGGGGA | -0.237
AGGCATGA | -0.101
GCAGCCTA | -0.11
CTCCTACA | 0.0183
GGCAGCAC | -0.201
ACTTGACC | -0.0693
CGCGTTAG | 0.0468
CGCGAGGC | -0.23
CACGTACA | 0.0264
CATTTAAC | 0.214

For quick reference, copied from above (series 4):
Oligonucleotide | log2 enrichment
CCUCAAGUCCUGUGCUACACAUCGUAUGUACCGAAUCGGAAAGGAGGAAAGGAAAGUAUUAUGUUACGCCGUUCGGAUCUGCACUUCCAG | 0.176
UUUUACUUCUCCGCCAGGUGCUGUGCUCCAUCAUCGCCGGUACCUUGCACUAUCUCUACCUGGCCACCUUGACCUGGAUGCUGCUGGAGG | -0.183
GUCCUGUGCUACACAUCGUAUGUACCGAAUCGGAAAAAAGGAAAAAAGGGGAAAAAAGGAAAGUAUUAUGUUACGCCGUUCGGAUCUGCA | -0.465
UGGGAGGUGGAUUUUGUUUAUUUUUUUAGCUCAUUGCCAGGGGUGGGAAUUUUUUUUUAAUAUGUGUCAUGAAUAAAGUUGUUUUUGAAA | 0.15
AAGUCCUGUGCUACACAUCGUAUGUACCGAAUCAAACCCAAAUUUUUAAACCCAAAAAAGUAUUAUGUUACGCCGUUCGGAUCUGCACUU | -0.302
